Measurements gathered from unrelated publications.
Compare with care: the assays were run in different laboratories. Numbers after ± are the reported error.
Target: Alpha-glucosidase MAL12 (MAL12, Saccharomyces cerevisiae S288c, UniProt P53341)
Sequence of UniProt P53341 (whole entry, looked up): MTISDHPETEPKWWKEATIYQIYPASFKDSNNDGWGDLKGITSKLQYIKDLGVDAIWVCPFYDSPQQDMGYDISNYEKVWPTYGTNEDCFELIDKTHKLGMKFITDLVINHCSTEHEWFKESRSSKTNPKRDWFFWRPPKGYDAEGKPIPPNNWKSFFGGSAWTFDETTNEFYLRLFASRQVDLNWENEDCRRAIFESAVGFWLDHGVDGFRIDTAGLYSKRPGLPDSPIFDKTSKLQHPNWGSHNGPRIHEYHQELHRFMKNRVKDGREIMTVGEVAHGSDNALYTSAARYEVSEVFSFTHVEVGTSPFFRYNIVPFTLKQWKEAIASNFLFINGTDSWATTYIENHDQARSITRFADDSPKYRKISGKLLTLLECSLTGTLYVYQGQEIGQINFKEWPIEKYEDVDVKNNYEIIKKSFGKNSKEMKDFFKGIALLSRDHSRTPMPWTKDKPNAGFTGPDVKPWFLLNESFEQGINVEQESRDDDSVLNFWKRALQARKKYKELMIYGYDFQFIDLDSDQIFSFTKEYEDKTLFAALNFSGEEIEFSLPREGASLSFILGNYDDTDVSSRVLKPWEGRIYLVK

With `Cc1ccc2nc(C)n(/N=C/c3ccc(C(=O)O)cc3)c(=O)c2c1` the IC50 was 93.4 ± 4.39 µM (enzyme activity, inhibitor; mean of two determinations, added: 4-nitrophenyl alpha-D-glucopyranoside).
The IC50 of `O=C1C(=O)N(CCOc2ccc(Br)cc2)c2ccccc21` is reported as 30.3 µM (enzyme activity, inhibitor).
The IC50 of `C=CC1C(OC2OC(COC(CC3C(C(=O)OC)=COC(OC4OC(CO)C(O)C(O)C4O)C3C=C)OC)C(O)C(O)C2O)OC=C(C(=O)OC)C1CC(=O)O` (stereo not drawn) is reported as over 100 µM (enzyme activity, inhibitor, absorbance).
With `O=C1C(=O)N(CCOc2ccc(Cl)cc2)c2ccc(Br)cc21` the IC50 was 5.32 µM (enzyme activity, inhibitor).
For `CSc1ccc(/C=N/N=C(c2ccc(N(C)C)cc2)c2ccc(N(C)C)cc2)cc1`, the IC50 was 0.45 ± 0.91 µM (enzyme activity, inhibitor; pH 6.8, 37 °C, added: p-nitrophenyl alpha-D-glucopyranoside).
`COc1cc2c(cc1OC)-c1cc3ccc(OC)c(OC)c3c[n+]1CC2` has an IC50 of 640 µM (enzyme activity, inhibitor).
With `O=Cc1ccc(O)c(O)c1` the IC50 was over 100 µM (enzyme activity, inhibitor; Saccharomyces cerevisiae).
With `O=C1C(=O)N(CCOc2ccc(Cl)cc2)c2ccccc21` the IC50 was 20.3 µM (enzyme activity, inhibitor).
For `O=c1ccc2cc(O[C@@H]3O[C@H](CO)[C@@H](O)[C@H](O)[C@H]3O)c(O[C@@H]3O[C@H](CO)[C@@H](O)[C@H](O)[C@H]3O)cc2o1`, the IC50 was over 100 µM (enzyme activity, inhibitor, absorbance).
`COc1ccc(-c2c(C(F)(F)F)oc3c(Cn4cnc5ccccc54)c(O)ccc3c2=O)cc1` gave an IC50 of 15.9 ± 4.7 µM (enzyme activity, inhibitor; pH 6.8).
`O=C1O[C@H](c2ccc(O)cc2)Cc2cc(O)cc(O)c21` gave an IC50 of over 100 µM (enzyme activity, inhibitor, absorbance).
With `CCCCCCSc1nc2ccccc2n1CC(=O)NN1C(=O)CSC1c1ccc(N(CC)CC)cc1` (stereo not drawn) the IC50 was 190 µM (enzyme activity, inhibitor, absorbance).
For `O=c1ccc2ccc(O[C@@H]3O[C@H](CO)[C@@H](O)[C@H](O)[C@H]3O)cc2o1`, the IC50 was over 100 µM (enzyme activity, inhibitor, absorbance).
With `COc1cc(/C=C/C(=O)O)ccc1O` the IC50 was 98.4 µM (enzyme activity, inhibitor).
For `COc1cc(/C=N/N=C(c2ccc(N(C)C)cc2)c2ccc(N(C)C)cc2)cc(OC)c1OC`, the IC50 was 0.36 ± 2.69 µM (enzyme activity, inhibitor; pH 6.8, 37 °C, added: p-nitrophenyl alpha-D-glucopyranoside).
`O=C(O)c1c(CC(O)c2ccc(O)cc2)cccc1OC1OC(CO)C(O)C(O)C1O` (stereo not drawn) gave an IC50 of over 100 µM (enzyme activity, inhibitor, absorbance).
With `CN(C)c1ccc(/C=N/N=C(c2ccc(N(C)C)cc2)c2ccc(N(C)C)cc2)cc1` the IC50 was 0.51 ± 1.84 µM (enzyme activity, inhibitor; pH 6.8, 37 °C, added: p-nitrophenyl alpha-D-glucopyranoside).
For `O=C(O)c1ccc(O)c(O)c1`, the IC50 was over 100 µM (enzyme activity, inhibitor, absorbance).
The IC50 of `C=C1C(=O)O[C@@H]2[C@H]3C(CO)=CC(=O)C3=C(C)C[C@H](OC(=O)Cc3ccc(O)cc3)[C@@H]12` is reported as 17.7 µM (enzyme activity, inhibitor, absorbance).
For `O=C1C(=O)N(CCOc2ccccc2)c2ccc(Cl)cc21`, the IC50 was 7.87 µM (enzyme activity, inhibitor).
`COc1ccc(/C=N/N=C(c2ccc(N(C)C)cc2)c2ccc(N(C)C)cc2)c(OC)c1` has an IC50 of 0.38 ± 2.27 µM (enzyme activity, inhibitor; pH 6.8, 37 °C, added: p-nitrophenyl alpha-D-glucopyranoside).
`O=C1C(=O)N(CCOc2ccc(Br)cc2)c2ccc(Br)cc21` has an IC50 of 16.2 µM (enzyme activity, inhibitor).
With `Cc1cccc(/C=C/C(=O)c2cnn(-c3ccccc3)c2C)c1` the IC50 was 394 µM (inhibitor).
For `OC[C@H]1O[C@@H](Oc2cc3c(O)cc(O)cc3[o+]c2-c2cc(O)c(O)c(O)c2)[C@H](O)[C@@H](O)[C@@H]1O`, the IC50 was 364 ± 15.2 µM.
`O=C1C(=O)N(CCOc2ccc(F)cc2)c2ccccc21` has an IC50 of 150 µM (enzyme activity, inhibitor).
With `COc1ccc(-c2c(C(F)(F)F)oc3c(Cn4ccnc4)c(O)ccc3c2=O)cc1` the IC50 was 20 ± 2 µM (enzyme activity, inhibitor; pH 6.8).
The IC50 of `O=C(O)c1c(O)cccc1/C=C/c1ccc(O)cc1` is reported as over 100 µM (enzyme activity, inhibitor, absorbance).
`COc1ccc(/C=N/N=C(c2ccc(N(C)C)cc2)c2ccc(N(C)C)cc2)cc1OC` gave an IC50 of 0.31 ± 1.59 µM (enzyme activity, inhibitor; pH 6.8, 37 °C, added: p-nitrophenyl alpha-D-glucopyranoside).
`O=C(O)c1c(O)cccc1CC(OC1OC(CO)C(O)C(O)C1O)c1ccc(O)cc1` (stereo not drawn) has an IC50 of over 100 µM (enzyme activity, inhibitor, absorbance).
The IC50 of `CN(C)c1ccc(C(=N/N=C/c2ccc([N+](=O)[O-])cc2)c2ccc(N(C)C)cc2)cc1` is reported as 0.28 ± 3.13 µM (enzyme activity, inhibitor; pH 6.8, 37 °C, added: p-nitrophenyl alpha-D-glucopyranoside).

Some of these lines once more:
`COc1cc2c(cc1OC)-c1cc3ccc(OC)c(OC)c3c[n+]1CC2` has an IC50 of 640 µM (enzyme activity, inhibitor).
With `O=Cc1ccc(O)c(O)c1` the IC50 was over 100 µM (enzyme activity, inhibitor; Saccharomyces cerevisiae).
With `O=C1C(=O)N(CCOc2ccc(Cl)cc2)c2ccccc21` the IC50 was 20.3 µM (enzyme activity, inhibitor).
